{"data": "Experimental data gathered from unrelated publications", "note": "“And” joins repeats or separate records; there may be more than shown. Numbers after ± are the reported error.", "UniProt P05177, sequence (whole entry, looked up)": "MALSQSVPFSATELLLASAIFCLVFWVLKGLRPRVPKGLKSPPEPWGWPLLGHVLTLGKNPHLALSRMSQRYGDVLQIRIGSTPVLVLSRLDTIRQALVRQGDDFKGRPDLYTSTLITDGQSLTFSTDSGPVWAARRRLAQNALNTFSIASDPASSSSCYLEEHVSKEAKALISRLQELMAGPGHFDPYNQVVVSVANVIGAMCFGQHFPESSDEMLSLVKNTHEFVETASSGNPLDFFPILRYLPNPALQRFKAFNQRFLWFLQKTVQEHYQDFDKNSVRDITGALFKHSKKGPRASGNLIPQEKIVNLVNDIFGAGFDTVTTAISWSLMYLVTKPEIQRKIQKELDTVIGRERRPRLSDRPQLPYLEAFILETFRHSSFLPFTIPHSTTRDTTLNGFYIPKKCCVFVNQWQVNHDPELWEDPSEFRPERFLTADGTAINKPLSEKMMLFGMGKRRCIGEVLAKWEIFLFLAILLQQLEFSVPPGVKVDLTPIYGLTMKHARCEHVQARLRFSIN"}
{"SMILES": "[11CH3]Oc1ccc(Cc2ccncc2)nc1-c1cccc([N+](=O)[O-])c1", "test": "ultrafiltration", "system": "monkey, plasma", "quantity": "fraction unbound", "result": "7.8%"}
{"SMILES": "CN1C(=O)[C@@H](Cc2ccc(O)cc2)NC(=O)CNC(=O)[C@H](Cc2ccc3ccccc3c2)NC(=O)[C@H](CCCNC(=N)N)NC(=O)[C@H]1CCCNC(=O)c1ccc(CNC(=O)CN2CCN(CC(=O)O)CCN(CC(=O)O)CCN(CC(=O)O)CC2)cc1 [gallium-68 labelled]", "test": "extrapolated to adult male", "system": "C57BL/6 mice, lungs", "quantity": "absorbed dose coefficient", "result": "0.00704 mGy/MBq"}
{"SMILES": "NC(=O)c1ccc(C(=O)NOCc2ccc(Sc3cccc(Cl)c3)c(C(F)(F)F)c2)cc1", "system": "male ICR mouse, plasma", "setting": "intraperitoneal, 30 mg/kg", "quantity": "AUC(0-inf)", "result": "24500 ng·h/mL"}
{"SMILES": "NC12CNCCNCC(NCc3ccc(CNC(=O)CCCC(=O)NCc4ccc(-c5nncnn5)cc4)cc3)(CNCCNC1)CNCCNC2.[64Cu+2]", "test": "OLINDA dosimetry", "system": "liver", "setting": "48 h pretargeting interval, with: huA33-TCO pretargeting", "quantity": "mean absorbed dose", "result": "0.0334 rad/mCi"}
{"SMILES": "NS(=O)(=O)c1ccc(N2N=C(C(F)(F)F)CC2c2ccc(F)cc2F)cc1 (centres unmarked)", "system": "Beagle dog, both sexes, plasma", "setting": "oral, 1 mg/kg, single dose, median", "quantity": "Tlast", "result": "108 h"}
{"SMILES": "CC[C@H](C)[C@@H]1NC(=O)[C@H](Cc2ccccc2)NC(=O)[C@@H](NC(=O)[C@H](CCCNC(=N)N)NC(=O)[C@H](Cc2ccccc2)NC(=O)[C@H](Cc2ccccc2)NC(=O)[C@H](CCCCN)NC(=O)[C@H](CO)NC(=O)[C@H](CC(C)C)NC(=O)[C@H](CCCNC(=N)N)NC(=O)[C@H](CCSC)NC(=O)[C@H](C)N)CCCCNC(=O)NC[C@@H](C(=O)N[C@@H](CCCNC(=N)N)C(=O)N[C@@H](CCCCN)C(=O)N[C@@H](CCCCN)C(=O)O)NC(=O)[C@H](CC(C)C)NC1=O", "test": "circular dichroism", "system": "20% TFE in PBS", "setting": "200 µM, pH 7.4, 25 °C", "quantity": "helicity", "result": "16.9%"}
{"SMILES": "NC(=S)N/N=C/c1cc(Cl)ccc1O", "test": "cyclic voltammetry", "system": "anhydrous DMF", "setting": "Cu2+ complex, glassy carbon electrode", "quantity": "peak potential separation", "result": "0.159 mV"}
{"SMILES": "CCCCCCCCCCCCCCCC(=O)N[C@@H](CCCCN)C(=O)N[C@@H](CCCCN)C(=O)N[C@@H](CO)C(=O)N[C@@H](CCCNC(=N)N)C(=O)N[C@@H](C)C(=O)N[C@@H](CC(C)C)C(=O)N[C@@H](Cc1ccccc1)C(N)=O", "system": "cynomolgus monkey, female", "setting": "3 mg/kg, day 5", "quantity": "prothrombin time", "result": "11.6 ± 0.2 s"}
{"SMILES": "Cn1c(=O)oc2ccc(-c3ccc(CC(C#N)NC(=O)C4CNCCCO4)c(F)c3)cc21 (centres unmarked)", "test": "refers to: macule", "system": "human", "setting": "15 mg single dose, fasted", "quantity": "subjects with TRAE", "result": "0%"}
{"SMILES": "C[C@H](Oc1cc(-c2cnn(C3CCN(CC[18F])CC3)c2)cnc1N)c1c(Cl)ccc(F)c1Cl", "test": "PET imaging", "system": "nude mouse, muscle", "setting": "iv, 30 min post injection", "quantity": "tracer uptake", "result": "1.6 ± 0.7 %ID/cc"}
{"SMILES": "CCCC[C@H](NC(C)=O)C(=O)N[C@H]1CC(=O)NCCCC[C@@H](C(=O)N[C@@H](C(=O)N2CCC[C@@H]2C(N)=O)C(C)C)NC(=O)[C@H](Cc2c[nH]c3ccccc23)NC(=O)[C@H](CCCN=C(N)N)NC(=O)[C@@H](Cc2ccc3ccccc3c2)NC(=O)[C@@H]2CCCN2C1=O", "system": "healthy dogs, plasma", "setting": "2.25 mg/kg per day, day 5, median", "quantity": "plasma phosphorus", "result": "4.7 mg/dL"}
{"SMILES": "NC1=N[C@@]2(c3ccc(F)cc3F)CO[C@@H](c3cn[nH]c3)C[C@H]2CS1", "test": "metabolic stability", "system": "human, liver microsomes", "quantity": "scaled CLint", "result": "< 8 mL/min/kg"}
{"SMILES": "CCN(CC)CCCSC(=S)N1CCN(C(=O)/C=C/c2coc3ccccc3c2=O)CC1", "tested on": "tomato spotted wilt virus", "test": "viral infection, half-leaf method", "system": "Nicotiana glutinosa", "setting": "500 µg/mL", "quantity": "protective effect", "result": "58.7 ± 5.4%"}
{"SMILES": "NCC(=O)N1CCC[C@H]1C(=O)N1C[C@H](O)C[C@H]1C(=O)O", "test": "potentiometric titration", "setting": "25 °C, MA complex, with: Fe(III)", "quantity": "log beta", "result": 16.7}
{"SMILES": "O=C(O)c1cccc(S(=O)(=O)Nc2ccccc2)c1", "system": "human, moderate liver dysfunction, plasma", "setting": "intravenous, 400 mg/m^2 belinostat, cycle 1 day -7, geometric mean", "scale": "reference: metabolite over belinostat", "quantity": "Cmax metabolic ratio", "result": 0.0738}
{"SMILES": "COc1cc(F)c(C(C)C)cc1C1=C(CN2C(=O)O[C@H](c3cc(C(F)(F)F)cc(C(F)(F)F)c3)[C@@H]2C)CC(C)(C)CC1", "test": "non-compartmental analysis", "system": "healthy male subjects, plasma", "setting": "oral, 100 mg single dose", "quantity": "Vd/F per body weight", "result": "69.9 L/kg"}
{"SMILES": "CCN(CC)CCSC(=S)N1CCN(C(=O)/C=C/c2coc3ccc(OC)cc3c2=O)CC1", "tested on": "tomato spotted wilt virus", "test": "viral infection, half-leaf method", "system": "Nicotiana glutinosa", "setting": "500 µg/mL", "quantity": "curative effect", "result": "58.5 ± 1.6%"}
{"SMILES": "[11CH3]c1ccc2nc(C3CCC3)n(-c3ccc4[nH]ncc4c3)c2n1", "system": "standard human adult, thyroid", "quantity": "absorbed radiation dose", "result": "2.3 µSv/MBq"}
{"SMILES": "COc1ccc(/C=C/C2=[N+]3C(=C(CO)c4c(C)cc(/C=C/c5ccc(OC)cc5)n4[B-]3(C)C)C(C)=C2)cc1", "system": "DMSO/methanol 1:1", "setting": "1 h, with: 645 nm light, 9.00 J/cm2", "quantity": "photostability", "result": "unstable"}
{"SMILES": "COc1ccc2c(c1)c(CC(=O)Nc1nnc(CCCCc3ccc(NC(=O)Cc4cccc(OC(F)(F)F)c4)nn3)[se]1)cn2C", "system": "water", "quantity": "aqueous solubility", "result": "~0.31 µg/mL"}
{"SMILES": "Cc1ccc2oc(-c3c4c(N)n[nH]c(=O)c4nn3-c3ccc(NC(=O)/C=C/CN(C)C)cc3)c(C)c2c1", "system": "mouse, plasma", "setting": "intraperitoneal, 3 mg/kg", "quantity": "MRT", "result": "3.14 h"}
{"SMILES": "N=C(N)NCCC[C@@H]1NC(=O)[C@H](Cc2c[nH]c3ccccc23)NC(=O)[C@@H](CC2CCCCC2)NC(=O)[C@@H]2CCCN2C(=O)[C@@H](NC(=O)CCc2ccccc2)CCCNC1=O", "system": "C57BL/6J mouse, plasma spinal cord", "setting": "oral, 1 mg/kg single dose", "quantity": "MRT(0-last)", "result": "0.8 h"}
{"SMILES": "CCCC[C@H](NC(=O)CNC(=O)CNC(=O)CN1CCN(CC(=O)O)CCN(CC(=O)O)CC1)C(=O)N[C@H]1CC(=O)NCCCC[C@@H](C(N)=O)NC(=O)[C@H](Cc2c[nH]c3ccccc23)NC(=O)[C@H](CCCNC(=N)N)NC(=O)[C@@H](Cc2ccccc2)NC(=O)[C@H](Cc2c[nH]cn2)NC1=O [technetium-99m labelled]", "system": "C57 mice, intestines", "setting": "intravenous, 0.037 MBq, 4 h", "quantity": "tissue uptake", "result": "2.6 ± 0.28 %ID"}
{"SMILES": "[64Cu+2].c1ccc(CNCc2ccc(CN3CCCN4CCNCCCN(CC4)CC3)cc2)nc1", "tested on": "CXCR4", "system": "NOD/SCID mouse, U87 and U87-stb-CXCR4 xenografts, pancreas", "setting": "iv, 120 min, ex vivo", "quantity": "tissue uptake", "result": "1.49 ± 0.05 %ID/g"}
{"SMILES": "NS(=O)(=O)c1ccc(-n2cc(CNc3ccccc3Cl)c(-c3ccc(OCc4ccccc4)cc3)n2)cc1", "system": "Wistar rat, gastric mucosa", "setting": "oral, 60 mg/kg, 17 h", "scale": "reference: vehicle", "quantity": "ulcer severity index", "result": "0.64 ± 0.43"}
{"SMILES": "CN(Cc1ccc(F)cc1)Cc1cc(=O)oc2cc(O)ccc12", "system": "HepG2 cell medium", "setting": "0.5 mM, 0 min", "quantity": "remaining intact compound", "result": "> 99%"}
{"SMILES": "O=C([O-])CN1CCN(CC(=O)[O-])CCN(CC(=O)NCC2CCC(C(=O)NC(Cc3ccc4ccccc4c3)C(=O)NCCCCC(NC(=O)NC(CCC(=O)O)C(=O)O)C(=O)O)CC2)CCN(CC(=O)[O-])CC1.[44Sc+3] (centres unmarked)", "test": "PET/CT dosimetry, OLINDA/EXM", "system": "human, spleen", "quantity": "organ absorbed dose", "result": "0.163 mSv/MBq and 0.064 mSv/MBq and 0.236 mSv/MBq"}
{"SMILES": "C[C@H]1NSc2nc(=O)c3[nH]ccc3n2Cc2ccc(Cl)cc21", "system": "dog, both sexes, plasma", "setting": "100 mg/kg", "scale": "reference: dog over human 10 mg", "quantity": "exposure ratio", "result": "not detected"}
{"SMILES": "[64Cu+2].c1cnc(CNCc2ccc(CN3CCCN4CCNCCCN(CC4)CC3)cc2)nc1", "tested on": "CXCR4", "system": "NOD/SCID mouse, U87 and U87-stb-CXCR4 xenografts, kidney", "setting": "iv, 450 min, ex vivo", "quantity": "tissue uptake", "result": "25.4 ± 3.38 %ID/g"}
{"SMILES": "CCC(CC)CNC(=N)NC(=N)NCCCCCCNC(=N)NC(=N)NCC(CC)CC", "system": "Caco-2", "setting": "5 µM, 2 h", "quantity": "efflux ratio", "result": 1.95}
{"SMILES": "Cc1cccc(-c2cccc(C)n2)n1.Cc1cccc(-c2cccc(C)n2)n1.[Cl-].[Cl-].[Ru+2].c1ccc(-c2ccnc3c2ccc2c(-c4ccccc4)ccnc23)cc1", "test": "plasmid DNA binding, agarose gel electrophoresis", "system": "pUC19 plasmid DNA", "setting": "pH 7.4, protected from light", "quantity": "EC50", "result": "62.5 to 125 µM"}
{"SMILES": "C=CC(=O)Nc1cc(Nc2nccc(-c3cn(C)c4ccccc34)n2)c(OCC(F)(F)F)nc1N(C)CCN(C)C", "tested on": "Cytochrome P450 1A2 (CYP1A2, Homo sapiens, UniProt P05177)", "test": "enzyme activity, inhibitor", "system": "human, liver microsomes", "setting": "1 µM", "quantity": "activity vs control", "result": "91.2%"}
{"SMILES": "CC(C)c1cnc(-c2cc(Cl)ccc2F)cc1Nc1ccncc1C(=O)NC(CO)CO", "system": "patients, phase I monotherapy", "setting": "oral, dose not given, grade 3", "quantity": "patients with decreased appetite", "result": "0%"}
{"SMILES": "CC[C@H](C)[C@@H]1NC(=O)[C@H](Cc2ccccc2)NC(=O)[C@@H](NC(=O)[C@H](CCCNC(=N)N)NC(=O)[C@H](Cc2ccccc2)NC(=O)[C@H](Cc2ccccc2)NC(=O)[C@H](CCCCN)NC(=O)[C@H](CO)NC(=O)[C@H](CC(C)C)NC(=O)[C@H](CCCNC(=N)N)NC(=O)[C@H](CCSC)NC(=O)[C@H](C)N)CCCNC(=O)NCCCC[C@@H](C(=O)N[C@@H](CCCNC(=N)N)C(=O)N[C@@H](CCCCN)C(=O)N[C@@H](CCCCN)C(=O)O)NC(=O)[C@H](CC(C)C)NC1=O", "test": "circular dichroism", "system": "20% TFE in PBS", "setting": "200 µM, pH 7.4, 25 °C", "quantity": "helicity", "result": "10.2%"}
{"SMILES": "C[C@]12C[C@H](c3ccc(S(C)(=N)=O)cc3)C3=C4CCC(=O)C=C4CC[C@H]3[C@@H]1CC[C@@]2(O)C(F)(F)C(F)(F)F (some centres unmarked)", "test": "nephelometry", "quantity": "aqueous solubility", "result": "74 µg/mL"}
{"note": "Excerpt of the above:"}
{"SMILES": "NS(=O)(=O)c1ccc(N2N=C(C(F)(F)F)CC2c2ccc(F)cc2F)cc1 (centres unmarked)", "system": "Beagle dog, both sexes, plasma", "setting": "oral, 1 mg/kg, single dose, median", "quantity": "Tlast", "result": "108 h"}
{"SMILES": "CCCC[C@H](NC(=O)CNC(=O)CNC(=O)CN1CCN(CC(=O)O)CCN(CC(=O)O)CC1)C(=O)N[C@H]1CC(=O)NCCCC[C@@H](C(N)=O)NC(=O)[C@H](Cc2c[nH]c3ccccc23)NC(=O)[C@H](CCCNC(=N)N)NC(=O)[C@@H](Cc2ccccc2)NC(=O)[C@H](Cc2c[nH]cn2)NC1=O [technetium-99m labelled]", "system": "C57 mice, intestines", "setting": "intravenous, 0.037 MBq, 4 h", "quantity": "tissue uptake", "result": "2.6 ± 0.28 %ID"}
